# Measurements collected from several papers.
# Each numbered part is a random draw from the data of one study; scales do not carry over between parts. Changes are numbered by the printed parent chain.

# Set 1 — target: ATF1, bZIP domain (human); technique: DHFR protein complementation; matrix: yeast; baseline: wild-type JUN-FOS pair; direction: higher = stronger binding
# Notes: single substitutions, most at no-binding floor
# Starting sequence: JUN, bZIP domain (human); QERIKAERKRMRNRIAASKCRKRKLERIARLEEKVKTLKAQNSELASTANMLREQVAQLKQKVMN; partner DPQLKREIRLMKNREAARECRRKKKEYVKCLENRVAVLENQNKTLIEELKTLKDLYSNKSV
Substitution,binding fitness [natural log]
A49C,-1.47
E44V,-1.51
A29G,-1.44
K36G,-1.5
L38D,-1.54
A46H,-1.53
I28W,-1.41
V56D,-1.49

# Set 2 — technique: DNA-protein interaction ELISA; form: double-stranded DNA, one strand shown; matrix: in vitro, bacterial lysate; tested at: not given; notes: whole dsDNA probe, crude lysate protein; baseline: highest signal in screen; direction: higher = stronger binding
# Target: Probable WRKY transcription factor 50, DNA-binding domain (WRKY50, Arabidopsis thaliana, UniProt Q8VWQ5, residues 99-173)
# Construct (chain): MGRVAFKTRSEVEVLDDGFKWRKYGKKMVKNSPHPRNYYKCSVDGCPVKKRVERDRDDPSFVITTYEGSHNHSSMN
Sequence,relative absorbance
AAAAAAGCGGTAGATGCGCAACTGTGAAAA,14 % of maximum
AAAAAAAATACTGCGCACTTGCACTCAAAA,37.5 % of maximum
AAAAAACTTCTAGTTTATGCTTCCGTAAAA,45.7 % of maximum
AAAAAAGGCTTCCACTTTGAGTTTGCAAAA,18.1 % of maximum
AAAAAAATGTTCAAGCTCGATCTACAAAAA,11.8 % of maximum
AAAAAACCTTACCTCATCCCTATCCCAAAA,20.8 % of maximum
AAAAAAGGGTTTAGATGTCCTTCAAAAAAA,9.08 % of maximum
AAAAAACCTACGATGGTTCTGATCTTAAAA,14.7 % of maximum

# Set 3 — technique: aptamer microarray, sandwich; form: DNA with 2'F-ANA; matrix: in vitro; tested at: 200 nM; added: Cy3 exosite-II aptamer, 400 nM; direction: higher = stronger binding; sequence: GGTTGGTGTGGTTGG
# Target: Prothrombin, mature alpha-thrombin (F2, Homo sapiens, UniProt P00734)
# Notes: whole 15-mer aptamer, many near background
Modification,mean fluorescence intensity [a.u.]
2'F-ANA at 1 2 3 4 6 8 9 11 12 13 15,185
2'F-ANA at 5 6 7 8 13 15,113
2'F-ANA at 1 2 3 4 5 6 9 11 13,50.8
2'F-ANA at 5 6 7 8 10 13 15,53.5
2'F-ANA at 3 4 6 7 8 12 15,999
2'F-ANA at 2 3 4 5 6 9 11 12 13 14,48.9
2'F-ANA at 2 5 6 9 13 14,45.7
2'F-ANA at 1 2 5 8 9 10 15,53.6

# Single results of other studies
# Starting sequence: PafA, mature enzyme, eGFP fusion (Elizabethkingia meningoseptica, UniProt Q9KJX5); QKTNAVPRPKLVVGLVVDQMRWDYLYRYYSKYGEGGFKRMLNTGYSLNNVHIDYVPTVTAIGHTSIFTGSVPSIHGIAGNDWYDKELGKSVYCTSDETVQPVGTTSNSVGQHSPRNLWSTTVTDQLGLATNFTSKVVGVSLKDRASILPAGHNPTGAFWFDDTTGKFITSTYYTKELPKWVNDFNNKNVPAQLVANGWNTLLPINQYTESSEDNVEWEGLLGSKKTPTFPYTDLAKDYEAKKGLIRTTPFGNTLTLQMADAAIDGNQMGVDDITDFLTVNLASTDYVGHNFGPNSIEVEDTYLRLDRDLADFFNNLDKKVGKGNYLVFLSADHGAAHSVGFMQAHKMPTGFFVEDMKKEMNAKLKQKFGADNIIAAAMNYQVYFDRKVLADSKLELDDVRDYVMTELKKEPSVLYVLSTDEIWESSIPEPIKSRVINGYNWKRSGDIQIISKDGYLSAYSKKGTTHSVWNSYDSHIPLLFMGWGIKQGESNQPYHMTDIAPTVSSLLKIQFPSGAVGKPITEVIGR
Substitution,target,assay,system,conditions,how to read,measurement,result
H337G,"inorganic phosphate, free oxyanion",microfluidic competitive inhibition,"in vitro, cell-free expressed","not given, derived from inhibition constants, unchanged parent 615000 nM",lower = stronger binding,phosphate dissociation constant,313 µM

# For quick reference, copied from above (set 2):
Sequence,relative absorbance
AAAAAACCTACGATGGTTCTGATCTTAAAA,14.7 % of maximum
